Assay results from different studies.
Every numbered part comes from another study and shows a few of its results, in no order. Positions count from the first letter of the parent shown.

Study 1 — target: Sox, HMG box (Pigoraptor chileana); method: Spec-seq; form: double-stranded DNA, one strand shown; sample: in vitro; concentration: not given; setting: whole probe, mean of replicates; reference: not given; direction: lower = stronger binding; measurement: relative binding energy; shared flanks, not repeated: GAGTCGTCTCGTCAGCAC … CCGTAGAGCACTCAGGTC
Residues (chain): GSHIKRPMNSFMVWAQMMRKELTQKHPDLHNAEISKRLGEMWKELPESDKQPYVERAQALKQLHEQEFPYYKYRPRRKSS
CATGGTT: 0.235 ln ratio
CATCAAA: 0.0595 ln ratio
CCATGTT: -0.257 ln ratio
ATGTGTT: -0.557 ln ratio
CATCGCC: 0.986 ln ratio
CATGGGT: 0.732 ln ratio
CATAGCC: -0.0375 ln ratio
GTACGTT: 0.911 ln ratio

Study 2 — method: aptamer microarray, sandwich; form: DNA with 2'F-ANA; sample: in vitro; concentration: 200 nM; with: Cy3 exosite-II aptamer, 400 nM; direction: higher = stronger binding; measurement: mean fluorescence intensity; sequence: GGTTGGTGTGGTTGG
Target: Prothrombin, mature alpha-thrombin (F2, Homo sapiens, UniProt P00734)
Setting: whole 15-mer aptamer, many near background
2'F-ANA at 2 3 4 7 9 12: 863 a.u.
2'F-ANA at 1 2 6 7 8 14 15: 60.8 a.u.
2'F-ANA at 1 2 3 5 6 7 11 12 13 15: 72.3 a.u.
2'F-ANA at 1 2 3 4 5 6 9 12 13 14 15: 69.7 a.u.
2'F-ANA at 1 5 8 11 13 15: 52 a.u.
2'F-ANA at 1 3 5 6 7 8 9 10 12 13 14: 49.3 a.u.
2'F-ANA at 2 4 9 10 11 12: 120 a.u.
2'F-ANA at 2 3 4 6 8 9 10 12 14: 176 a.u.

Study 3 — method: protein-binding microarray; form: double-stranded DNA, one strand shown; sample: in vitro; concentration: 2540 nM top; setting: 60-bp whole probe; with: salmon DNA 0.4 mg/ml; reference: random background probes; direction: higher = stronger binding; measurement: fitted relative affinity; shared flanks, not repeated: GCCTAGCAC … GTCTTGATTCGCTTGACGCTGCTG
Target: Interferon regulatory factor 3, full length, phosphomimetic (IRF3, Homo sapiens, UniProt Q14653, residues 1-427, S386D/S396D/S398D/S402D/T404D/S405D)
Target sequence (chain): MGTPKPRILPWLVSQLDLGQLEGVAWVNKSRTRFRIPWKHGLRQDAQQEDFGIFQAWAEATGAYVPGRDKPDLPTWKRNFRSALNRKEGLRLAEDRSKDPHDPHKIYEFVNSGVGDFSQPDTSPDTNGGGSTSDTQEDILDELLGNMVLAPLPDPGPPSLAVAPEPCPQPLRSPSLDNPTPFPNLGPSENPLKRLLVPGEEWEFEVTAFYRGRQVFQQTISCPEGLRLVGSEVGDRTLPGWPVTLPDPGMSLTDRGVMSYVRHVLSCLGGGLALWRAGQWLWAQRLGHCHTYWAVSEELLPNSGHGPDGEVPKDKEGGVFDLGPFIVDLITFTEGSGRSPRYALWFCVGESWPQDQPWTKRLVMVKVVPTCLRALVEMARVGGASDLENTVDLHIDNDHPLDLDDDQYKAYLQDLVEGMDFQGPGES
TTAGGTAACGACACTGGGTTAGTGCTA: -0.377 z-score
TCAACACTAGTTTTCATACTGTGCTAG: 1.69 z-score
TTAGGTCTCCTGATCCTTTAGTGCTAG: 0.725 z-score
TTAGGTACCGGTCTCGGTTAGTGCTAG: 2.4 z-score
TTAGGACTGGGGTTTCGGGTAGTGCTA: 0.452 z-score
TTCTGATTGAATCTCCCATTGTGCTAG: 0.688 z-score
GGCGGTTCCGGTTTCGGGACGTGCTAG: 6.34 z-score
TCACAGTTTAATATCTAACTGTGCTAG: 0.702 z-score

Single results of other studies
Parent: viral docking peptide; KGVKRKLFAEDSS; partner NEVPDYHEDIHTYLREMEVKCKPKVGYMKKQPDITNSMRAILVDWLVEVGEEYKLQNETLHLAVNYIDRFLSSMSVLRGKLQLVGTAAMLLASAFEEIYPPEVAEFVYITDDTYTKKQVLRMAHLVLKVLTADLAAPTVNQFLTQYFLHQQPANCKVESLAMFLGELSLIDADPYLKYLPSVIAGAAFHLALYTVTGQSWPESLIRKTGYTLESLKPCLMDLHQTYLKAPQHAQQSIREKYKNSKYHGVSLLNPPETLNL
KGVKRVLFAEDSS [K6V] — normalised enrichment score (CCNA2, cyclin fold, Cln2 fusion (human); yeast growth competition, sequencing; yeast; strong parent motif; reference: not given, higher = stronger binding): 5.42

Some of these lines once more (study 2):
2'F-ANA at 1 3 5 6 7 8 9 10 12 13 14: 49.3 a.u.
2'F-ANA at 1 2 6 7 8 14 15: 60.8 a.u.
